Measured values gathered from unrelated publications.
Every numbered part comes from another study and shows a few of its results, in no order.

Block 1
Target: Ras GTPase-activating protein-binding protein 1, C-terminal RGG region (G3BP1, Homo sapiens, UniProt Q13283)
Chain of UniProt Q13283 (whole entry, looked up): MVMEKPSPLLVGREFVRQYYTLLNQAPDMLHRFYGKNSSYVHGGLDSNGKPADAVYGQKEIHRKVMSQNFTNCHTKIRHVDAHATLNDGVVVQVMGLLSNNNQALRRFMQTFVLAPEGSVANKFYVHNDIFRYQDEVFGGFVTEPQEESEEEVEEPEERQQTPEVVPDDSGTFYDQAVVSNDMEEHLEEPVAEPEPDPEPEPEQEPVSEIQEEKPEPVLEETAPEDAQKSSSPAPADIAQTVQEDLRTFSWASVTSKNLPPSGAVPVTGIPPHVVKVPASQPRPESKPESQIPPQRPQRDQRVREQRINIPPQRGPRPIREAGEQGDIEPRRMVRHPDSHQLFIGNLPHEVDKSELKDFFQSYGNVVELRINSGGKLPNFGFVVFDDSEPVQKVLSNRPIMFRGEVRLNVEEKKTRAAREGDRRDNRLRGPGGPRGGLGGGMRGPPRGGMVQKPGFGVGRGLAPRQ
Technique: RNA Bind-n-Seq
Molecule type: RNA
Sample: in vitro
Concentration: 1 µM
Setting: whole 134-nt RNA, ends assumed
With: 150 mM KCl
Relative to: input library
Direction: higher = stronger binding
With `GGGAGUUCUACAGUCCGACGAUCGCUGUUGGAGUGGAUCCGCCGCACAAUCCCGUGGCUGGAGAACCGGGUGCCCGAGAACACCAUGCAUGCCAUGCAACAGAAGCUGGAGGAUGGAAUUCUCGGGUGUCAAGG` the log2 enrichment was -2.2.
`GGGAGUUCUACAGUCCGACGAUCUCAAGUCCUGUGCUACACAUCGUAUGUACCGAAUCGGGGUUGGGGUUGGUUGGGAAAGUAUUAUGUUACGCCGUUCGGAUCUGCACUUCCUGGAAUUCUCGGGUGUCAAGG` gave a log2 enrichment of 0.0469.
`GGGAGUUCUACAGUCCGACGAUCUCCUGUGCUACACAUCGUAUGUACCGAAUCGGGGAGGGGAAAAAAAGGGGAAAAAGGGGAAAGUAUUAUGUUACGCCGUUCGGAUCUGCAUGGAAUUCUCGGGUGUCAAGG` has a log2 enrichment of 1.38.
`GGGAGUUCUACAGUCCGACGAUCGCAGGAAGUAAAAACAAAUGGAAAUGCUUCGGAUAGUGGCAGGGGUGGGGGUUGCUAAGGAAAGGGUGGGAUGGGAGUGGGUAAACAGUUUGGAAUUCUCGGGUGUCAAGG` has a log2 enrichment of 0.117.
`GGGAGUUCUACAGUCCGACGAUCACCAUGCAGGUGGGCAUCUUUGGGAAAUGGGGCAAGGGGGGGAUAGGGAGGGGGGUAACACUUUGGGAACAGGUGGUCCCAGGUCGUUUCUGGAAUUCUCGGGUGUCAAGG` gave a log2 enrichment of -0.959.
With `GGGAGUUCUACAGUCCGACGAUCUCAAGUCCUGUGCUACACAUCGUAUGUACCGAAUCGGUUUGGGUUUGGUUUGGGAAAGUAUUAUGUUACGCCGUUCGGAUCUGCACUUCCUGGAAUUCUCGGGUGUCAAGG` the log2 enrichment was -0.96.
`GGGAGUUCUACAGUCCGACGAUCCUCAAGUCCUGUGCUACACAUCGUAUGUACCGAAUCGGUGGUUUUUGGUUUGGAAAGUAUUAUGUUACGCCGUUCGGAUCUGCACUUCCAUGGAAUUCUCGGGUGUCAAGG` has a log2 enrichment of -1.11.
With `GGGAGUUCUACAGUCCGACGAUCGCAGGAAGUAAAAACAAAUGGAAAUGCUUCGGAUAGUGGCAGGGGUGGGGGUUGCUAAGGAAAGGGUGGGAUGGGAGAAAGUAAAGAGUUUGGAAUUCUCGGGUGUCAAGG` the log2 enrichment was 1.37.
The log2 enrichment of `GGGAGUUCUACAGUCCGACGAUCUCCUGUGCUACACAUCGUAUGUACCGAAUCGGGCCCCCCGGGCCCCCCGGGCCCCCCGGGAAAGUAUUAUGUUACGCCGUUCGGAUCUGCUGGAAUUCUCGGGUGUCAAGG` is reported as -1.13.
The log2 enrichment of `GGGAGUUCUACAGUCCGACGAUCCUCAAGUCCUGUGCUACACAUCGUAUGUACCGAAUCGGUGGUUUGGAAAAAGGAAAGUAUUAUGUUACGCCGUUCGGAUCUGCACUUCCAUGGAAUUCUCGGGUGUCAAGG` is reported as -1.11.

Block 2
Target: RNA binding protein fox-1 homolog 2, RRM domain, GST-SBP tag (RBFOX2, Homo sapiens, UniProt O43251-10, residues 100-194)
Technique: RNA Bind-n-Seq
Molecule type: RNA
Sample: in vitro
Concentration: 365 nM
Setting: natural RNA segment, single round, ends assumed
Relative to: no-protein control
Direction: higher = stronger binding
Construct (chain): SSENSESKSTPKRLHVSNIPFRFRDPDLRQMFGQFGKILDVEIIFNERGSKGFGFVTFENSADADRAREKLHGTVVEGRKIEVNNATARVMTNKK
`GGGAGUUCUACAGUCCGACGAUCAUUUAUUUACAGAUGGAAGUCUUUGUUUCAUGAAGCUACCAAACUUUAAAAAGAAUGUCACCCUUUUUUUUGUUUGUUAUGGAAACCAGAGAUUGUAAAAUGGAAAAAGAUGGAAUUCUCGGGUGCCAA` — result for “RBNS enrichment (R)”: 0.529.
For `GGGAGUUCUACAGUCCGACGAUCCCCUCAGUGGAGAAGAUGAGAAGAACAUCUUGGGGUGCUUUUCUGUUAUAGGGUCCCCUCCCUGACGCCUAAAAUAUUUGUAACUACACCUAAAAGGGUUUUGCUUCGGGUGGAAUUCUCGGGUGCCAA`, “RBNS enrichment (R)” read 0.416.
`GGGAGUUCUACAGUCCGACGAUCCUCCUUCCCUCAAGUCUUAGUUGGUUUGAGAGCCAGGGAUAUGGAUCCAGGGUGCUGUUGCAGGGUCACCUGCCUGUUACCACACCCCCAUCCAGCUGGGUGGUGGGUGAUGGAAUUCUCGGGUGCCAA` — result for “RBNS enrichment (R)”: 0.191.
`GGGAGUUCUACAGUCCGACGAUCGGAAAGUUGGGCGUAAAGAUGGUCAGAUGUUGCCAGGCGAAGAUGAGCCUCUUCAUGCUCUAGUCACUGCCAAUACGAUGGAGAAUGUCAAAAAGGCAGUAGAACAGGUCUGGAAUUCUCGGGUGCCAA`: “RBNS enrichment (R)” 1.18.
`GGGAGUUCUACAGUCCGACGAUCGUUAGGAGUAUUUUUGUAUUUUGUCAGAUGUUUAGGAGACAGACUUUCGGGUCAUGUUUCUUGUCUUGUUCCCAGAUCUUUUCUUAAAAGAACAGUGUGACACCAGAAGCUGGAAUUCUCGGGUGCCAA` — result for “RBNS enrichment (R)”: 0.517.
`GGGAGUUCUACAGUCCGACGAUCGUGGGCGGGGGCAAAGAGCCUACCAUCUCUGCCUGAGACAUCAGUUUAUACCAGACCAUUUUUACUAUGGAAUUUCAAGAGUUAAGGAUUGUCUUGGGAAACGUAGUCUAUGGAAUUCUCGGGUGCCAA`: “RBNS enrichment (R)” 0.639.
`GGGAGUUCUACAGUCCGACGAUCGUGGUGGCAGCACAGUGGCAGGCCAGUGGUCAACUUAGGGCAUCUUUUCUCUGCCACGGCAGCGCAAUGCAAAGAGCAGACAUGGCCUCUUGCUUCUCUUCACAGCCAUAUGGAAUUCUCGGGUGCCAA`: “RBNS enrichment (R)” 0.459.
For `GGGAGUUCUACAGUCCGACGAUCUUAUUCCGGCAGCACAUAAACAGAUGACUCAUGCUGUGAGAGGUAAGACAGUGUGUAGCAGCCCUGAGCUUUUCAAUUCUACUGCUCUUUCUCUUCCCGCAGACAGUCCCUGGAAUUCUCGGGUGCCAA`, “RBNS enrichment (R)” read 0.483.
For `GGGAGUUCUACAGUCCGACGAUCAUAUUUUACUGAUUGGAAAUGUCAUCCUUUAUUAAAAAUAAACAUGGUUUUCCAUAGUUGCCUGCCACCUAAGUUCACAUUAUUCUUCUUUUAUAUCAUUAUCACUAGUUUGGAAUUCUCGGGUGCCAA`, “RBNS enrichment (R)” read 0.83.
`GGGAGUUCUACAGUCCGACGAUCCGCUGGGUUUUCAGACCCCAUGUUGUUGGUCAAUGAAAUAAAGCAUCUUACAGAAGGUGUUAACUGUUUUCUGUAGCCACAGCCUCAGUUCCUUUCCACAGUGCACCCAAUGGAAUUCUCGGGUGCCAA`: “RBNS enrichment (R)” 0.383.
`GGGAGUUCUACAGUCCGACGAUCCUAUCCUGGGACCUCCCCAGCCCAGGAAAAACUGGAAGCCUUCCCCCAGCAAGGCAGAAGCUUGGAGGAGGGUUGUAAAAGCAUAUUGUACCCCCUCAUUUGUUUAUCUGUGGAAUUCUCGGGUGCCAA` — result for “RBNS enrichment (R)”: 0.691.
Under “RBNS enrichment (R)”, `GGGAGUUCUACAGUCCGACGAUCAUCAUGUAUUGUGAUGUUUCAAUGUGAGACACAAAAACAAUGGCUUGAAACUUGUGUAUCAUAUGUGAUUUUGAAAUGAACACCUUGAAUAGCACUAAUUUUUAUUUGUGUGGAAUUCUCGGGUGCCAA` is recorded as 0.698.

Block 3
Target: Interferon regulatory factor 7, full length, phosphomimetic (IRF7, Homo sapiens, UniProt Q92985, residues 1-503, S101K/S471D/S472D/S475D/S476D/S477D/S483D/S484D/S487D)
Chain of UniProt Q92985 (whole entry, unmodified, looked up): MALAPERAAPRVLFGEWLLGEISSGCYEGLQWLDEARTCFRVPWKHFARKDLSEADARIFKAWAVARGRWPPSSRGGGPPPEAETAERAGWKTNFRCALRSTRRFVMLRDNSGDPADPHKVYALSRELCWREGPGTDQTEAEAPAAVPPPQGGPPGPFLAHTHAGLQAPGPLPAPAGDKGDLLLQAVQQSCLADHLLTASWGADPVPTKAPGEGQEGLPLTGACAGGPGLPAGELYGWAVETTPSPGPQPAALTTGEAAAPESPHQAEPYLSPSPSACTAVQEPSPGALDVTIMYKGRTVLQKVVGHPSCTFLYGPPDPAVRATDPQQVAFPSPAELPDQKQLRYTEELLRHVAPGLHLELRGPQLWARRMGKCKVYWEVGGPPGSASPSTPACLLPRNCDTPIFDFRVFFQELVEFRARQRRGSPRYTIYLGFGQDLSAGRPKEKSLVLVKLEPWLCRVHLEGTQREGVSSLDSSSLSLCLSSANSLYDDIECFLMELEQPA
Technique: protein-binding microarray
Molecule type: double-stranded DNA, one strand shown
Sample: in vitro
Concentration: 250 nM
Setting: 60-bp whole probe
With: salmon DNA 0.4 mg/ml
Relative to: random background probes
Direction: higher = stronger binding
Shared flanks, not repeated: GCCTAGCAC … GTCTTGATTCGCTTGACGCTGCTG
`GACGAGCTGAGTTTCGAGACGTGCTAG` gave a log fluorescence of 3.11 z-score.
With `TTAGGTTCCGGTCTCGGTTAGTGCTAG` the log fluorescence was 3.47 z-score.
For `GACGCTATCCTACTGCTGACGTGCTAG`, the log fluorescence was 0.136 z-score.
`TTAGATTTCGGGTTTCGGTTAGTGCTA` gave a log fluorescence of 7.48 z-score.
With `TCACATATGTTTTTCATACTGTGCTAG` the log fluorescence was 0.622 z-score.
For `TTAGAACTGGGGTTTCGATTCGTGCTA`, the log fluorescence was 10.4 z-score.
`TTAGAACTGAGTCTCGTTTAGTGCTAG` gave a log fluorescence of 2.07 z-score.
The log fluorescence of `TTAGGTATCGGGACTGGGTTTGTGCTA` is reported as 0.188 z-score.
For `GACGATTTAGGGTTTCGAGACGTGCTA`, the log fluorescence was 2.15 z-score.
`GTTAGAATGTCCTTTCTCCATGTGCTA` gave a log fluorescence of -0.104 z-score.
`GACGGACTGCTACCGCTGACGTGCTAG` has a log fluorescence of -0.963 z-score.
`TTAGGCTTCGGACTGGGTTAGTGCTAG` gave a log fluorescence of -0.0598 z-score.
`TCAGGTTCTCTTTTATTACTGTGCTAG` gave a log fluorescence of 1.98 z-score.
`TTAGGTATCGGTTTCCGTTAGTGCTAG` gave a log fluorescence of 7.52 z-score.
`GACGAACTGAGACTGGGGACGTGCTAG` gave a log fluorescence of -0.189 z-score.
With `GACGAACTGGCGTATCGAGACGTGCTA` the log fluorescence was -0.957 z-score.
`GACAGTATCCTTATCCTGACGTGCTAG` has a log fluorescence of 0.359 z-score.
With `TCATTATTCTAGCCTCCAACTGTGCTA` the log fluorescence was 1.16 z-score.
`TTAGGTATTGACTTTCGGTTAGTGCTA` gave a log fluorescence of 1.46 z-score.
With `TCAATTCCAGGGTTTTATACTGTGCTA` the log fluorescence was 0.586 z-score.
The log fluorescence of `TTAGGTTTAGACTTTCGGTTAGTGCTA` is reported as 1.09 z-score.
`TCCAACCTGCTGAATCAAAAGTGCTAG` has a log fluorescence of -0.216 z-score.
`TTAGTTTTCAGTCTCGATTAGTGCTAG` gave a log fluorescence of 3.78 z-score.
`GACGGTCTGGGGACTGGGGACGTGCTA` has a log fluorescence of -0.427 z-score.
For `GACGAACTGGGGTTGCGAGACGTGCTA`, the log fluorescence was -0.771 z-score.

Block 4
Target: Histone acetyltransferase KAT6A, both winged helices, GST fusion (KAT6A, Homo sapiens, UniProt Q92794, residues 1-181)
Technique: protein binding microarray
Molecule type: double-stranded DNA, one strand shown
Sample: in vitro
Concentration: not given
Setting: 8-mer, flanks averaged, mean of 2 arrays, mostly near background
Relative to: not given
Direction: higher = stronger binding
Construct (chain): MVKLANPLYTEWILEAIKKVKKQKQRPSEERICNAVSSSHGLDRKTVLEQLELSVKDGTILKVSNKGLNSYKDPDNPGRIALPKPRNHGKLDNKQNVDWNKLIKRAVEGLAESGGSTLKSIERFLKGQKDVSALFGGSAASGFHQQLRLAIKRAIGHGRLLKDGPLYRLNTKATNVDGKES
The E-score of `CAGATCTA` is reported as -0.102.
With `GCGTGGAA` the E-score was 0.156.
`AAGCGAGT` gave an E-score of 0.0557.
`ACATATTA` gave an E-score of -0.0211.
`CTGTCACC` has an E-score of -0.127.
`GCTGCAGA` has an E-score of -0.114.
`AATCTCCA` gave an E-score of -0.118.
The E-score of `ACCCGTAC` is reported as 0.235.
The E-score of `CGAGGCAC` is reported as -0.0645.
For `ATCTCGAC`, the E-score was -0.0634.
`AAGACGAC` gave an E-score of -0.0507.
The E-score of `ATGTATGG` is reported as -0.0443.
With `ACATGATC` the E-score was 0.0377.
For `CTCTAAGA`, the E-score was -0.0127.
For `ATACACGG`, the E-score was 0.177.
With `GTTACCCA` the E-score was -0.14.
`ATGCTTAG` has an E-score of -0.0505.
`AGGAGAAA` gave an E-score of -0.269.
`AAAGATGA` has an E-score of -0.191.
For `GATGATTA`, the E-score was 0.113.
For `ACGGACAT`, the E-score was 0.246.
`CGGTGAAC` gave an E-score of 0.128.
The E-score of `AAGTGGAT` is reported as -0.2.

Some of these lines once more (block 3):
`GACGGACTGCTACCGCTGACGTGCTAG` has a log fluorescence of -0.963 z-score.
`TTAGGCTTCGGACTGGGTTAGTGCTAG` gave a log fluorescence of -0.0598 z-score.
`TCAGGTTCTCTTTTATTACTGTGCTAG` gave a log fluorescence of 1.98 z-score.
`TTAGGTATCGGTTTCCGTTAGTGCTAG` gave a log fluorescence of 7.52 z-score.
`GACGAACTGAGACTGGGGACGTGCTAG` gave a log fluorescence of -0.189 z-score.
With `GACGAACTGGCGTATCGAGACGTGCTA` the log fluorescence was -0.957 z-score.
`GACAGTATCCTTATCCTGACGTGCTAG` has a log fluorescence of 0.359 z-score.
With `TCATTATTCTAGCCTCCAACTGTGCTA` the log fluorescence was 1.16 z-score.
